Published values gathered from unrelated publications.
Each line is one published result; not all experiments were run side by side. Numbers after ± are the reported error.

| Structure (SMILES) | target or system | test | test system | conditions | scale | quantity | result |
| --- | --- | --- | --- | --- | --- | --- | --- |
| CC(C)Nc1nc2cc(Cl)c(Cl)cc2n1[C@H]1O[C@@H](CO)[C@H](O)[C@@H]1O |  | population PK model | human | oral, 70 kg body weight |  | Vp/F | 7.1 L |
| CN1CCN(C(=O)c2ccc(C3CCCCC3)cc2)CC1 |  | liver microsome stability | cynomolgus liver microsomes | 1 µM |  | hepatic clearance | 36 mL/min/kg |
| Cn1cc(-c2ccc(-c3cncc(Cl)c3N3CCC4(CCNC4=O)CC3)cc2)cn1 | COLO 205 | microarray, item: IFIT3 |  | concentration not given, 2 h, gene set RIG-G | relative to: untreated cells | fold change in expression | 1.52 |
| CCc1cc(C(=O)NC)c2nccc(N3CCc4c(cc(Cn5ccnc5)cc4-c4cn(C)nc4C(F)(F)F)C3=O)c2c1 |  |  | Sprague Dawley rats | oral, 100 mg/kg twice daily, 7 days | relative to: vehicle | blood CH change | 0.86% |
| O=C(O)CCC(=O)O.[2H]C([2H])([2H])Oc1cc(C)c2[nH]ccc2c1CN1CC[C@@H](C2CC2)C[C@H]1c1ccc(C(=O)O)cc1 |  | multiple ascending dose | healthy Chinese subjects | 100 mg twice daily |  | subjects with TEAE Appendicitis | 0% |
| COCCC(=O)Nc1ccc(C2CCCCC2)cc1 |  | liver microsome stability | human liver microsomes | 1 µM, without NADPH |  | hepatic clearance | 18 mL/min/kg |
| Cc1cc2sc(N)nc2c2cccnc12 |  |  | female BALB/c mice, plasma | intraperitoneal, 30 mg/kg |  | MRT(0-inf) | 4.89 h |
| CC(C(=O)Nc1ccc(C2CCCCC2)cc1)n1cncn1 (stereo not drawn) |  |  | cryopreserved mouse hepatocytes | 1 µM |  | hepatic clearance | 49 mL/min/kg |
| Cl.[2H]C([2H])([2H])CC(=O)c1cnc(NC(=O)C2CC2)cc1Nc1cccc(-c2ncn(C([2H])([2H])[2H])n2)c1OC |  | geometric mean | human | oral, 10 mg once daily, day 7, fasted, liquid, multiple dose |  | elimination rate constant | 2e-05 s⁻¹ |
| CNCc1ccc(-c2[nH]c3cc(F)cc4c3c2CCNC4=O)cc1 |  |  | human patients | oral, 600 mg twice daily, grade 4 |  | pulmonary embolism incidence | 0% |
| CN1CCN(C(=O)c2ccc([C@H]3[C@@H](F)[C@@H](F)C[C@@H](F)[C@H]3F)cc2)CC1 |  | hepatocyte stability | cryopreserved human hepatocytes | 1 µM |  | hepatic clearance | 6.2 mL/min/kg |
| N[C@@H](C[18F])C(=O)O |  | PET | athymic nude mouse | intravenous, 90 min |  | muscle uptake | 0.56 ± 0.36 %ID/cc |
| CCCCC1=NC2(CCCC2)C(=O)N1Cc1ccc(-c2ccccc2S(=O)(=O)Nc2noc(C)c2C)c(COCC)c1 |  |  | healthy adult volunteers, plasma | oral, 100 mg, single dose, fasted, crushed tablet |  | Cmax | 2850 ng/mL |
| Cc1ccc([C@@H]2O[C@H](CO)[C@@H](O)[C@H](O)[C@H]2O)cc1Cc1ccc(-c2ccc(F)cc2)s1 |  |  | human, maintenance hemodialysis patients | oral, 100 mg once daily, steady state, mean |  | volume of distribution | 180 L |
| CC(=O)O[C@@]12CO[C@@H]1C[C@H](O)[C@@]1(C)C(=O)[C@H](O)C3=C(C)[C@@H](OC(=O)[C@H](O)[C@@H](NC(=O)OC(C)(C)C)c4ccccc4)C[C@@](O)([C@@H](OC(=O)c4ccccc4)[C@H]21)C3(C)C |  | dialysis | PBS with 10% serum | 2 h, pH 7.4, 37 °C |  | release | 93.5% |
| CC(C)(C)NC(=O)C1CCN(Cc2ccc(/N=N/c3ccc(F)cc3)cc2)CC1 |  |  | DMSO | 25 µM, 25 °C |  | absorption maximum, trans isomer | 335 nm |
| COc1ncc(-c2nc3c(n2C(C)C)[C@H](c2ccc(Cl)cc2)N(c2cc(Cl)cn(C)c2=O)C3=O)c(OC)n1 |  |  | human patients, plasma | oral, 200 mg, high-dose arm, cycle 1 day 1 |  | AUC(0-t) geometric mean | 26300 ng·h/mL |
| CO[C@H]1C[C@@H]2CC[C@@H](C)[C@@](O)(O2)C(=O)C(=O)N2CCCC[C@H]2C(=O)O[C@H]([C@H](C)C[C@@H]2CC[C@@H](OC(=O)NCCOCCOCCOCCOCCOCCOCCOCCOCCC(=O)N3CCc4cc(Cn5nc(-c6ccc7oc(N)nc7c6)c6c(N)ncnc65)ccc4C3)[C@H](OC)C2)C[C@@H](O)[C@H](C)/C=C(\C)[C@@H](O)[C@@H](OC)C(=O)[C@H](C)C[C@H](C)/C=C/C=C/C=C/1C |  |  | human, plasma | intravenous, 8 mg, cycle 1 day 15, arithmetic mean |  | Tmax | 57.6 min |
| Cc1ccc(OC2CCN(c3ncnc4ccc(F)cc34)CC2)cn1 |  |  | rat liver microsomes |  |  | intrinsic clearance (scaled) | 1430 mL/min/kg |
| CCN1/C(=C/C(C)=O)Sc2ccc(F)cc21 |  |  | cynomolgus monkey | oral, 10 mg/kg, 0.5 h post-dose |  | QRS duration | 36 ± 2 ms |
| COc1ccnc(C(=O)N[C@H]2COC(=O)[C@H](Cc3ccccc3)[C@@H](O)[C@H](C)OC2=O)c1O |  | soil adsorption | clay soil | pH 7.6, organic carbon 1.7 % |  | KFoc | 731 mL/g |
| Cc1cc(NC2CCN(C(=O)OC3CCN(C(=O)/C=C/CN(C)C)C3)CC2)n2ncc(C(C)C)c2n1 (stereo not drawn) |  |  | patients with advanced solid tumours | dose not given, QD arm, any grade |  | patients with Diarrhea | 49% |
| NC(=O)c1[nH]cnc1N |  |  | human patients, plasma | IV infusion over 1 h, 1000 mg/m^2 DTIC, cycle 1 day 1, DTIC alone |  | AUC(0-8h) | 20800 ng·h/mL |
| CCCCCNC(=O)N1CCC(CN(Cc2ccc(Cl)cc2)Cc2ccc([N+](=O)[O-])s2)C1 (stereo not drawn) |  | item: BA% | C57BL/6 mouse, blood | 100 mg/kg twice daily, 7 days |  | blood cell fraction | 0.8 ± 0.3% |
| Cc1cc(Nc2ccc(S(F)(F)(F)(F)F)cc2)n2nc(C(C)(F)F)nc2n1 |  |  | CD-1 mouse, female, whole blood | oral, 300 mg/kg daily, 8 h after dose 3, spray-dried dispersion |  | blood concentration | 255 ± 101 µM |
| Cn1ncnc1[C@H]1c2n[nH]c(=O)c3cc(F)cc(c23)N[C@@H]1c1ccc(F)cc1 |  |  | human patients, plasma | oral, 600 µg/m2 twice daily day 1, day 5, dose level DL5, median, added: temozolomide 40 mg/m2 daily days 2-6 |  | AUC(0-8h) | 109 ng·h/mL |

| Structure (SMILES) | target or system | test | test system | conditions | scale | quantity | result |
| --- | --- | --- | --- | --- | --- | --- | --- |
| Cc1ccc(S(=O)(=O)N(CC#N)C(=O)Cc2cc(C(F)(F)F)cc(C(F)(F)F)c2)cc1 |  | chemical stability, HPLC-MS | borate buffered saline | pH 10.2, no N-acetyl-lysine |  | degradation rate constant | 4 h⁻¹ |
| OC[C@H]1O[C@@H](c2ccc(Cl)c(Cc3ccc(O[C@H]4CCOC4)cc3)c2)[C@H](O)[C@@H](O)[C@@H]1O |  |  | Japanese type 1 diabetes patients, blood | 2.5 mg, day 28 | relative to: baseline | change in Calcium | -0.1 mg/dL |
| CC(C)(C(=O)N1CCOc2c(C#N)cncc2C1)C(F)F |  | item: haematochezia | human, both sexes | oral, 15 mg twice daily, 14 days, multiple ascending dose |  | subjects with TEAE | 0% |
| CN(Cc1cccnc1)C(=O)c1ccc([C@H]2[C@@H](F)[C@@H](F)C[C@@H](F)[C@H]2F)cc1 |  | liver microsome stability | rat liver microsomes | 1 µM |  | hepatic clearance | 40 mL/min/kg |
| COc1ccc2[nH]c([S+]([O-])Cc3ncc(C)c(OC)c3C)nc2c1 (stereo not drawn) |  |  | healthy Chinese volunteers, CYP2C19 rapid metabolizers | oral, 20 mg, enteric-coated tablets |  | t1/2 | 51 ± 30 min |
| Cc1cc(C(=O)NC(C)(C)COc2cccc3c2C(N)=NS(=O)(=O)N3)cc(C)n1 | human peripheral blood lymphocytes | CBPI, concurrent micronucleus test |  | 2000 µg/mL, 4 h | relative to: vehicle control | cytotoxicity | -4% |
| Cc1cc(Nc2ccc(S(F)(F)(F)(F)F)cc2)n2nc(C(C)(F)F)nc2n1 | Plasmodium vivax | 12-lead Holter ECG | human malaria patients | oral, 800 mg, QTc above 450 ms |  | patients with QTcB above threshold | 33.3% |
| O=C(NCC1CCOCC1)c1ccc(C2CCCCC2)cc1 |  | liver microsome stability | dog liver microsomes | 1 µM |  | hepatic clearance | 27 mL/min/kg |
| C=CC(=O)NC1CCN(c2ncc3ncnc(Nc4ccc(Oc5ccc6c(c5)ncn6C)c(C)c4)c3n2)CC1 |  |  | human, male, plasma | oral, 30 mg single dose, fed, geometric mean |  | AUC(0-tz) | 4.06 µM·h |
| CN1C(=O)[C@@H](NC(=O)c2nnc(Cc3ccccc3)[nH]2)COc2cccnc21 |  | phase I multiple ascending dose | human, male and female | oral, 200 mg, 14 days |  | participants with any serious TEAE | 0% |
| N#CCC(=O)Nc1ccc([C@H]2[C@@H](F)[C@@H](F)C[C@@H](F)[C@H]2F)cc1 |  | hepatocyte stability | cryopreserved mouse hepatocytes | 1 µM |  | hepatic clearance | 46 mL/min/kg |
| CSCC[C@H](NC(=O)CN)C(=O)N[C@@H](CCCNC(=N)N)C(=O)N[C@@H](Cc1c[nH]c2ccccc12)C(=O)N[C@@H](CO)C(=O)N[C@@H](CCCNC(=N)N)C(=O)N[C@@H](CCCCN)C(=O)N[C@@H](CCSC)C(=O)N1CCC[C@H]1C(=O)N[C@@H](CS)C(=O)N[C@H](C(=O)N[C@@H](CO)C(N)=O)C(C)C |  | 12G5 competition, SUP-T1 cells | human plasma | concentration not given, 8 h |  | remaining activity | 30 ± 3% |
| [18F]c1ccc(-c2ccc3c(c2)[nH]c2ccncc23)cn1 |  | microPET/CT imaging | B6SJL mouse, normal, brain | intravenous, 15 min |  | SUV | 0.749 ± 0.138 |
| CNC(=O)c1ccc(-c2cnc3ncc(Cc4ccc5ncccc5c4)n3n2)cc1F |  |  | Japanese patients | oral, 400 mg, grade 3/4 |  | Cellulitis dose reduction/interruption | 1% |
| CCOc1c([C@H](C)n2nc(C)c3c(N)ncnc32)cc(Cl)c(F)c1[C@@H]1CNC(=O)C1 |  |  | patients, monotherapy | oral, 5 mg once daily, cycle 1 day 15 |  | Cmin | 127 nM |
| Cc1ccc(O[C@@H]2O[C@H](C(=O)O)[C@@H](O)[C@H](O)[C@H]2O)cc1 |  | ultrafiltration | normal rat serum | 37 °C |  | serum protein binding | 45 ± 30% |
| C=CC(=O)Nc1cc(Nc2nccc(-c3cn(C4CC4)c4ccccc34)n2)c(OC)cc1N(C)CCN(C)C |  | long-term storage stability | rat plasma | 1 ng/mL, 3 weeks, -80 °C | relative to: nominal concentration | relative error | 12.8% |
| O=C(O)CCCOc1ccc([18F])cc1-c1cc(-c2ccccc2C(F)(F)F)n(-c2ccccc2)n1 |  | 18F biodistribution | male ddY mouse, whole blood | intravenous, 2.1 MBq, 60 min |  | blood radioactivity | 0.11 ± 0.03 SUV |
| Cc1ccc(C(=O)N(CCCN)C(c2nc3snc(C)c3c(=O)n2Cc2ccccc2)C(C)C)cc1 (stereo not drawn) |  | item: Hypokalemia | human patients | intravenous, dose not given, CTCAE grade ≥3, all doses |  | patients with adverse events | 21% |
| Cc1ccc(Sc2ccccc2N2CCNCC2)c(C)c1 |  | item: Headache | healthy adult men | oral, 5 mg daily, 12 days |  | participants with TEAE | 0% |
| CN1CCN(c2cccc3c2CCN(C(=O)/C=C/c2c(-n4cnnn4)ccc(Cl)c2F)[C@@H]3C(=O)Nc2ccc(C(=O)O)cc2)C(=O)C1 |  |  | healthy human subjects | intravenous infusion, 4 mg/h, 2 h |  | subjects with nausea | 0% |
| CC(C)C[C@H](NC(=O)[C@H](N)C(C)C)C(=O)N[C@@H](CCCNC(=N)N)C(=O)N[C@@H](Cc1c[nH]c2ccccc12)C(=O)N[C@@H](CO)C(=O)N[C@@H](CCCNC(=N)N)C(=O)N[C@@H](CCCCN)C(=O)N[C@@H](CC(C)C)C(=O)N1CCC[C@H]1C(=O)N[C@@H](CS)C(=O)N[C@H](C(=O)N[C@@H](CO)C(N)=O)C(C)C |  | 12G5 competition, SUP-T1 cells | human plasma | concentration not given, 8 h |  | remaining activity | 60 ± 4% |
| CNC(=O)c1ccc(-c2cnc3ncc(Cc4ccc5ncccc5c4)n3n2)cc1F |  | item: Constipation | cancer patients | oral, dose not given, dose escalation, grade 3-4 |  | patients with adverse event | 0% |
| C=CC(=O)N1CCC([C@@H]2CCNc3c(C(N)=O)c(-c4ccc(Oc5ccccc5)cc4)nn32)CC1 |  |  | rat plasma | 800 ng/mL, 3 h, room temperature | relative to: nominal concentration | stability relative error | -2.6% |
| O=C(N[C@H](Cc1c[nH]c2ccccc12)C(=O)Nc1ccncc1)c1ccc(-c2cc(C(F)(F)F)ccc2F)cc1F |  |  | Swiss Webster mouse, female, liver | oral, 50 mg/kg, 8 h, 20% HPβCD vehicle |  | concentration | 5.88 µM |
